Measurements gathered from unrelated publications.
Every numbered part comes from another study and shows a few of its results, in no order.

Set 1
Target: Ras GTPase-activating protein-binding protein 1, RRM domain (G3BP1, Homo sapiens, UniProt Q13283)
Sequence of UniProt Q13283 (whole entry, looked up): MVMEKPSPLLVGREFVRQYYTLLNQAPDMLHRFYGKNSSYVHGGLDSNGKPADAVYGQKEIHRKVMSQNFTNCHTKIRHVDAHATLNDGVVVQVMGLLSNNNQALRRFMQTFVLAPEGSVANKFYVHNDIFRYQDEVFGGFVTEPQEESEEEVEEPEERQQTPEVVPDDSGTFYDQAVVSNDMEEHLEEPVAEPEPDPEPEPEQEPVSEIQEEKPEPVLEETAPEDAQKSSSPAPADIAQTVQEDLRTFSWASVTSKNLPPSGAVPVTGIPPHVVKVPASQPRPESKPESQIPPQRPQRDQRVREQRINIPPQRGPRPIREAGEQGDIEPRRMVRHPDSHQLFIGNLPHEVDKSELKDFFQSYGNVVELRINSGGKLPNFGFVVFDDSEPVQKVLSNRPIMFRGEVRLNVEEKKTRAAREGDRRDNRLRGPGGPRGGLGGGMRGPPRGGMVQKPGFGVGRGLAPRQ
Technique: RNA Bind-n-Seq
Molecule type: RNA
Medium: in vitro
Concentration: 1 µM
Notes: whole 134-nt RNA, ends assumed
Together with: 150 mM KCl
Relative to: input library
Reading: higher = stronger binding
All sequences stand within: GGGAGUUCUACAGUCCGACGAUC … UGGAAUUCUCGGGUGUCAAGG
The log2 enrichment of `CAAGUCCUGUGCUACACAUCGUAUGUACCGAAUCGGGGAAAGGGAAAGGGAAAGGGAAAGUAUUAUGUUACGCCGUUCGGAUCUGCACUU` is reported as 0.688.
The log2 enrichment of `ACCAUGCAGGUGGGCAUCUUUGGGAAGUGGGGCAAGGGGUGGAUAGGGAGGGGGGUAACACUUUGGGAACAGGUGGUCCCAGGUCGUUUC` is reported as -0.42.
`ACCAUGCAGGUGGGCAUCUUUGGGAAGUGGGGCAAGGGGGGGAUAGGGAAAAGGGUAACACUUUGGGAACAGGUGGUCCCAGGUCGUUUC` gave a log2 enrichment of -0.365.
`CUGUGCUACACAUCGUAUGUACCGAAUCGGGUUUUUUUGGGUUUUUUUGGGAAAAAAAGGGAAAGUAUUAUGUUACGCCGUUCGGAUCUG` gave a log2 enrichment of -0.284.
With `CACAGACAACACGCACCCACACAGACACAGAGGGAAGGGGUUGGGAUGGGGACAGGGUGCACAGCAGGACGGGGUAGGACCCCAGCCCCU` the log2 enrichment was -0.405.
`UCAAGUCCUGUGCUACACAUCGUAUGUACCGAAUCGGUUUGGUUUGGGGUUUGGGAAAGUAUUAUGUUACGCCGUUCGGAUCUGCACUUC` has a log2 enrichment of -0.315.
`AGUCCUGUGCUACACAUCGUAUGUACCGAAUCGGGAAAAAAAGGGUUUUUGGGUGGGAAAGUAUUAUGUUACGCCGUUCGGAUCUGCACU` has a log2 enrichment of 0.646.
The log2 enrichment of `UGGGAGGUGGAUUUUGUUUAUUUUUUUAGUUCAUUUCCAGGGGUGGGAAUUUUUUUUUAAUAUGUGUCAUGAAUAAAGUUGUUUUUGAAA` is reported as 1.6.
`AAGUCCUGUGCUACACAUCGUAUGUACCGAAUCGGUUUUUGGUUUUUGGUUUUUGGGAAAGUAUUAUGUUACGCCGUUCGGAUCUGCACU` has a log2 enrichment of -0.143.
`UCAAGUCCUGUGCUACACAUCGUAUGUACCGAAUCGGGAAGGGGAAGGGAAGGGGAAAGUAUUAUGUUACGCCGUUCGGAUCUGCACUUC` has a log2 enrichment of 1.05.
`UGGGAGGUGGAUUUUGUUUAUAUUUUUAGCUCAUUUCCAGGGGUGGGAAUUUUUUUUUAAUAUGUGUCAUGAAUAAAGUUGUUUUUGAAA` gave a log2 enrichment of 1.76.
For `CCUGUGCUACACAUCGUAUGUACCGAAUCGGGGAAAAAAAGGGGUUUUUUUGGGGUGGGGAAAGUAUUAUGUUACGCCGUUCGGAUCUGC`, the log2 enrichment was 0.53.
With `UCCUGUGCUACACAUCGUAUGUACCGAAUCGGGAAAAAGGGGAAAAAGGGAAAAAGGGGAAAGUAUUAUGUUACGCCGUUCGGAUCUGCA` the log2 enrichment was -0.0757.
`CAAGUCCUGUGCUACACAUCGUAUGUACCGAAUCGGGUGGGUUUGGGAAAAAGGGAAAGUAUUAUGUUACGCCGUUCGGAUCUGCACUUC` gave a log2 enrichment of 0.935.

Set 2
Target: Histone acetyltransferase KAT6A, winged helix 2, GST fusion (KAT6A, Homo sapiens, UniProt Q92794, residues 85-181)
Technique: protein binding microarray
Molecule type: double-stranded DNA, one strand shown
Medium: in vitro
Concentration: not given
Notes: 8-mer, flanks averaged, mean of 2 arrays, mostly near background
Relative to: not given
Reading: higher = stronger binding
Residues (chain): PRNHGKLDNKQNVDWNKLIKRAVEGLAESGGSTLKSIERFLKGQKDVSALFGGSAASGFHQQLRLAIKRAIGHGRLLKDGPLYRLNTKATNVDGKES
The E-score of `GAATGTCC` is reported as -0.033.
With `GACTACTA` the E-score was -0.0781.
`ATTAGCGA` has an E-score of -0.0998.
`GCCAAGAA` has an E-score of 0.0313.
`GTAACAAC` gave an E-score of -0.0468.
The E-score of `GCACTGAA` is reported as -0.00148.
For `AGCGGAGG`, the E-score was 0.0336.
`CACTATGA` has an E-score of -0.0822.
`CCCGTCGG` has an E-score of 0.144.
`AGGTGTAC` gave an E-score of -0.0654.
`CATGCGTC` gave an E-score of 0.00713.
`GGCGGAGA` has an E-score of 0.265.
The E-score of `ACTGCATA` is reported as 0.0841.
`AATGTTGT` has an E-score of -0.185.
With `ACTACTAT` the E-score was 0.00213.
The E-score of `CCGTTCCA` is reported as -0.0126.
For `CGACGCGA`, the E-score was 0.127.
The E-score of `CGCACTTA` is reported as -0.0341.
With `GATTATGC` the E-score was -0.0131.
For `CCAGGTAG`, the E-score was -0.0857.
`TAACGTCA` has an E-score of -0.104.
The E-score of `GTATCACA` is reported as -0.0231.
`ACCTTGCG` gave an E-score of 0.0186.
With `AACACCTT` the E-score was -0.0485.
`ACTAGCTA` has an E-score of 0.092.

Set 3
Target: Prothrombin, mature alpha-thrombin (F2, Homo sapiens, UniProt P00734)
Technique: aptamer microarray, sandwich
Molecule type: DNA with 2'F-ANA
Medium: in vitro
Concentration: 200 nM
Notes: whole 15-mer aptamer, many near background
Together with: Cy3 exosite-II aptamer, 400 nM
Reading: higher = stronger binding
Strand: GGTTGGTGTGGTTGG
Under “mean fluorescence intensity”, `2'F-ANA at 1 2 4 5 6 11 12 13 15` is recorded as 65.2 a.u.
Under “mean fluorescence intensity”, `2'F-ANA at 1 3 4 5 10 11 14` is recorded as 46.2 a.u.
`2'F-ANA at 1 7 8 9 10 12 15` — result for “mean fluorescence intensity”: 72.4 a.u.
`2'F-ANA at 4 5 6 9 13 15`: “mean fluorescence intensity” 54.1 a.u.
`2'F-ANA at 1 3 4 10 13 15` — result for “mean fluorescence intensity”: 74 a.u.
For `2'F-ANA at 4 5 6 7 11 14`, “mean fluorescence intensity” read 43.8 a.u.
`2'F-ANA at 1 5 6 7 10 12 13 15`: “mean fluorescence intensity” 48.5 a.u.
`2'F-ANA at 4 8 10 11 14 15` — result for “mean fluorescence intensity”: 55.5 a.u.
`2'F-ANA at 2 3 6 7 8 9 11 12 13`: “mean fluorescence intensity” 748 a.u.
Under “mean fluorescence intensity”, `2'F-ANA at 3 4 5 10 12 13` is recorded as 53.5 a.u.
For `2'F-ANA at 1 3 5 9 11 12 13`, “mean fluorescence intensity” read 79.4 a.u.
`2'F-ANA at 2 3 4 6 7 9 11 12 14` — result for “mean fluorescence intensity”: 200 a.u.
Under “mean fluorescence intensity”, `2'F-ANA at 1 4 5 10 11 13 14` is recorded as 48.2 a.u.
`2'F-ANA at 1 2 3 4 5 6 7 8 10 11 12 13 14 15` — result for “mean fluorescence intensity”: 68.9 a.u.
Under “mean fluorescence intensity”, `2'F-ANA at 1 4 5 6 8 9 11 15` is recorded as 51.5 a.u.
Under “mean fluorescence intensity”, `2'F-ANA at 1 4 7 9 10 11 12 15` is recorded as 95.7 a.u.
`2'F-ANA at 2 4 5 7 8 9 13 14 15`: “mean fluorescence intensity” 95.6 a.u.
For `2'F-ANA at 2 4 6 7 10 15`, “mean fluorescence intensity” read 81.1 a.u.
Under “mean fluorescence intensity”, `2'F-ANA at 7 9 10 12 13 14 15` is recorded as 118 a.u.
`2'F-ANA at 1 2 5 12 14` — result for “mean fluorescence intensity”: 43.9 a.u.

Set 4
Target: RNA binding protein fox-1 homolog 2, RRM domain, GST-SBP tag (RBFOX2, Homo sapiens, UniProt O43251-10, residues 100-194)
Technique: RNA Bind-n-Seq
Molecule type: RNA
Medium: in vitro
Concentration: 365 nM
Notes: natural RNA segment, single round, ends assumed
Relative to: no-protein control
Reading: higher = stronger binding
All sequences stand within: GGGAGUUCUACAGUCCGACGAUC … UGGAAUUCUCGGGUGCCAA
Residues (chain): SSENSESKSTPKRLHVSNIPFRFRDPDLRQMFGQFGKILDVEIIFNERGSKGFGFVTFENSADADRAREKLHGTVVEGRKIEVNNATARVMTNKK
`AAAACAGCAGCAGUAUUUUCCUUUUCCUAGUGCUAAAAUCCCUUUCCCUAGAAAUUGGCUCACCUUGGGAAACCCAGGGAAAGAAUCAGCAGGUUCUCUGCCCUCCCUAG`: “RBNS enrichment (R)” 0.463.
`UCCUAAGCGUUACAUGGUUGUGACUAUGGAAACUCCAGUUAAGACAGGAUCUUAUCAGAGGUGGACAACGUGAAGAUUUCCUUUUCCAUUUUCAAUAAACUUUGGAACAA`: “RBNS enrichment (R)” 0.357.
For `CUCCACUCCCACUCUGCCAGACACCCUGACACCCACCCAGGCUUUGAAGAGCAUGGAGGGGGAGCCUCAGAGCUGACAGUCCUGCUUAGAGCCCUUAAAAAGACUUGAAA`, “RBNS enrichment (R)” read 0.27.
Under “RBNS enrichment (R)”, `GAUUUCUCUUUUACCUGUACAUAUGCUAAGUAAACAGAAUUUUAAAGGCAUGCAUUUCUUACAAUCUAUGUUGACUGACAGCCUUGUGUUCCUUGAAGGUUUUGAAUUUA` is recorded as 2.7.
Under “RBNS enrichment (R)”, `GUAUUUAAAACUAGAAUAGCCAGUAUUUAUGUUUUUUAUAAAACUGUGCAAUACGAAUUAUGCAAUCACAAUACAUUUGUAGCUCCCGAGUGUCCUAAAGGGAGUGCACU` is recorded as 0.45.
For `AUCUGUGAACAUUGUGCUAUGUUCCACCUUGUUUGAAAACUGUGAAACAGUGUGGCAUGCCAACAUCUCUAUAGUGAUUUUUACACGUGAUGUAUUCGGUGUAGCUGAGG`, “RBNS enrichment (R)” read 1.04.
`CGCUCCCUUCCCUAAGGAUCCACUCCUACAGUUCAUUUAGAGAAUGGCUACUGCUGAGUCCUCUGGGGUUGAGGGAAGGCGAGCCGGGCAGGGGCCAUGUCAUGUUAUUG` — result for “RBNS enrichment (R)”: 0.659.
Under “RBNS enrichment (R)”, `UAUUUGUAUUUAAAAUAACUAUUAAAUGAGCAUUUUGCACAUGGGCCCACAGUGUCCUGUUGGCCAGCGGGGUUCACGGCUAGUGUCUGGAAGCCUGCUGGCCUCGGGUA` is recorded as 0.644.
`ACAUGGAUUCUGAGAAGUCCAGGGUCUGAAUUGUUGUCUCUGAUUACUGGAAGGACAGGUUAACUGAAUGUCUGUGAUCACUAACAGGUGAUGGGCUUUGUGCCCACUCC`: “RBNS enrichment (R)” 0.239.
Under “RBNS enrichment (R)”, `GAUCUUCUGCCUCCGCCAGCCUGUGAGCUGUUUCCAUGUUUUCAAAGCACAGCAGCAGUCGCUUCUGGGGAGUGCCAGUUAAAGUCAUGCAUCAGACCCUGCCAGACGUG` is recorded as 0.831.
`GCCGGGUGUGAGGGAAGUCAGACCUUGCAGGGCCCCAGGCCGCAGAAGAUUGCAUUUCACAGUCGUGGGGAAGCAGCUCUAACCAUAAGGAAGGCUGCUUCUCACCCUGC`: “RBNS enrichment (R)” 1.81.
For `AAAGAUGAACUUCACUUGGGCCAGAUAGGCUGAACCAAGCUUCCUGGCGUUUGUAGAGAAAGUGGGACGCUGUUCUCUUCAUAUUUAAAUGCCAGCCAGGUGCUGGCUGU`, “RBNS enrichment (R)” read 0.269.

Set 5
Target: PABPC1L2, full length, GST fusion (mouse, UniProt A0ABA7IW68)
Technique: RNAcompete
Molecule type: RNA
Medium: in vitro
Concentration: 20 nM
Notes: 7-mer, probes averaged, single round
Relative to: mean of 7-mers
Reading: higher = stronger binding
Residues (chain): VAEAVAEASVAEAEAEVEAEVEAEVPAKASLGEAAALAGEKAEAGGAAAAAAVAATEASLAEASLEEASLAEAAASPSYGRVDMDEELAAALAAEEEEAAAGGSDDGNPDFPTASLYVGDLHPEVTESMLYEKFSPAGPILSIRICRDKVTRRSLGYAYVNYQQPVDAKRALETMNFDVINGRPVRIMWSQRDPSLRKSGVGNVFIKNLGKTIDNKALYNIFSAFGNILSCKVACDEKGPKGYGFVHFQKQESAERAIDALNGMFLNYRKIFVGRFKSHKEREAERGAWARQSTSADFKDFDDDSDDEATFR
For `GGGAAGG`, the 7-mer Z-score was 0.369.
With `AACUUUA` the 7-mer Z-score was 0.233.
With `GAGGUGA` the 7-mer Z-score was 0.211.
With `CUACAGA` the 7-mer Z-score was -0.0881.
`CAGUACG` gave a 7-mer Z-score of -0.108.
`UCACCGC` has a 7-mer Z-score of -0.215.
The 7-mer Z-score of `AGGGCUA` is reported as 0.178.
`GCACAAG` has a 7-mer Z-score of -0.0609.
The 7-mer Z-score of `GCGUAAG` is reported as -0.391.
With `GCCAACC` the 7-mer Z-score was -0.18.
The 7-mer Z-score of `CGUGUCC` is reported as -0.403.
`UCGAACG` has a 7-mer Z-score of -0.32.
For `AACCUUA`, the 7-mer Z-score was -0.00289.
`CUAAACG` has a 7-mer Z-score of 0.169.
The 7-mer Z-score of `GUAGUCA` is reported as -0.133.
`GGGAAUA` has a 7-mer Z-score of 0.327.
`CGAAAUA` has a 7-mer Z-score of 0.408.
For `AUUCUAU`, the 7-mer Z-score was -0.296.
The 7-mer Z-score of `AAGCGGA` is reported as 0.419.
